# Experimental data from different studies.
# Compare with care: the assays were run in different laboratories. Several values in a cell are separate wells, animals, samples, runs or records. ± gives the spread as reported.
# TRPM8: Transient receptor potential cation channel subfamily M member 8 (TRPM8, Homo sapiens, UniProt Q7Z2W7)
# MAOA: Amine oxidase [flavin-containing] A (MAOA, Homo sapiens, UniProt P21397)
# GAP50: Glideosome-associated protein 50 (GAP50, Plasmodium falciparum, UniProt Q8I2X3)
# NADH dehydrogenase [ubiquinone] iron-sulfur protein 7, mitochondrial/NADH dehydrogenase [ubiquinone] iron-sulfur protein 2, mitochondrial/MT-ND1: NADH dehydrogenase [ubiquinone] iron-sulfur protein 7, mitochondrial/NADH dehydrogenase [ubiquinone] iron-sulfur protein 2, mitochondrial/MT-ND1 (Homo sapiens, UniProt O75251+O75306+P03886)
# FFAR4: Free fatty acid receptor 4 (FFAR4, Homo sapiens, UniProt Q5NUL3)
Structure (SMILES),target,assay,system,conditions,how to read,quantity,result
O=C(CNc1cccc2c1C(=O)N(C1CCC(=O)NC1=O)C2=O)NCCCCCCN1CCc2c(c3ccccc3n2Cc2ccc(C(=O)NO)cc2)C1 (stereo not shown),"Polyamine deacetylase HDAC10 (HDAC10, Homo sapiens, UniProt Q969S8)","degrader, western blot",MM1.S,"1 µM, 24 h",,degradation,93%
Nc1ncnc2c1ncn2[C@@H]1O[C@H](COP(=O)(O)OP(=O)(O)O)[C@@H](O)[C@H]1O,"Creatine kinase U-type, mitochondrial (CKMT1A, Homo sapiens, UniProt P12532, E265Q)","substrate, Kinase-Glo luminescence",,"pH 7.0, reverse reaction, E227Q mutant, added: second substrate in excess",,kcat,0.0005 ± 0.0002 s⁻¹
O=C1NC(=O)/C(=C/c2ccc3c(c2)OC(F)(F)O3)S1,TRPM8,antagonist,HEK293,5 µM,reference: control,remaining activity,93.4 ± 4.59%
O=C1O/C(=C\c2cc(F)ccc2OCCN2CC[C@@H](F)C2)c2cc(Cc3cccc(F)c3)[nH]c(=O)c21,"Dual specificity calcium/calmodulin-dependent 3',5'-cyclic nucleotide phosphodiesterase 1C, isoform PDE1C2 (PDE1C, Homo sapiens, UniProt Q14123)","enzyme activity, inhibitor",,added: 3H-cGMP substrate,,binding free energy,-11.5 kcal/mol
Cc1ccc(C(=O)Nc2ccc3ccccc3c2)o1,"Otop1 (Mus musculus, UniProt Q80VM9)","ion current, whole-cell voltage ramp",,"10 µM, added: Na+ bath solution",,reversal potential,54 mV and 50.4 mV and 65 mV and 54.6 mV and 55.8 mV and 60.3 mV
Cl.Cl.NNCCc1ccc(NC(=O)CCCc2ccccc2)cc1,MAOA,,,,,kinact,0.3 ± 0.11 min⁻¹
C[C@@H](c1cc(Cl)cc(Cl)c1)N(C)c1ncc2c(N)nc(N)nc2n1,GAP50,"binding, surface plasmon resonance",,1:1 binding model,,koff,6.17e-06 s⁻¹
NC(=O)NOCCCCCCCCCCCCCCCCCCCC[P+](c1ccccc1)(c1ccccc1)c1ccccc1.O=C([O-])C(F)(F)F,"NADH dehydrogenase [ubiquinone] iron-sulfur protein 7, mitochondrial/NADH dehydrogenase [ubiquinone] iron-sulfur protein 2, mitochondrial/MT-ND1","complex I-dependent respiration, Seahorse XF96",HCT-116,"10 µM, 24 h",reference: control,oxygen consumption rate,0 ± 1.43%
CC(C)CNc1cc(=O)[nH]c(=O)[nH]1,FFAR4,"agonist, β-arrestin recruitment",CHO cells,10 µM,,activation,2 ± 1%
CC[C@@H]1[C@H](F)C(=O)N[C@@H]1COc1nccc2cc(C(N)=O)c(OC)cc12,"TRAF2 and NCK-interacting protein kinase (TNIK, Homo sapiens, UniProt Q9UKE5)","ATP probe binding, KiNativ profiling, refers to: Lys1 probe site",THP-1 cell lysate,0.01 mM,,inhibition,-2.8%
FC(F)(F)c1cc(Nc2nc(Cl)nc(Cl)n2)cc(C(F)(F)F)c1,"CD209 antigen (CD209, Homo sapiens, UniProt Q9NNX6)","binding, grating-coupled interferometry","Man(α1,2)Man-PEG3 chip",,,Hill slope,2.7
CC[C@H](C)[C@H](NC(=O)[C@H](CO)NC(=O)[C@@H](N)CC(=O)O)C(=O)N[C@@H](CCCNC(=N)N)C(=O)NCC(=O)N[C@@H](Cc1ccccc1)C(=O)N[C@@H](CC(C)C)C(=O)N[C@H](C(=O)N[C@@H](CCCNC(=N)N)C(=O)N1CCC[C@H]1C(=O)N[C@H](C(=O)N[C@@H](CCCNC(=N)N)C(=O)N[C@H](C(=O)N[C@H](C(=O)N[C@@H](Cc1c[nH]cn1)C(=O)N[C@@H](Cc1ccc(O)cc1)C(=O)N[C@@H](Cc1ccc(O)cc1)C(=O)N[C@@H](Cc1c[nH]c2ccccc12)C(=O)N[C@@H](CCCNC(=N)N)C(=O)N[C@@H](CCC(N)=O)C(=O)N[C@@H](Cc1ccccc1)C(=O)N[C@@H](CC(=O)O)C(=O)N[C@@H](CC(=O)O)C(=O)N[C@@H](CO)C(=O)N[C@@H](Cc1ccccc1)C(=O)N[C@@H](CCSC)C(=O)N[C@@H](CCCNC(=N)N)C(=O)N1CCC[C@H]1C(=O)N[C@H](C(=O)N[C@@H](Cc1ccccc1)C(=O)NCC(=O)NCC(=O)N[C@@H](CCCNC(=N)N)C(=O)O)C(C)C)C(C)C)[C@@H](C)O)[C@@H](C)O)[C@@H](C)O,"Probable calcium-binding protein CML18 (CML18, Arabidopsis thaliana, UniProt Q9M8U1)",isothermal titration calorimetry,,"concentration not given, pH 6.3, 25 °C, added: 18 µM EGTA",,binding enthalpy (ΔH1),-4.28 ± 0.112 kcal/mol
NCc1ccccc1,MAOA,substrate,,pH 9.0,,kcat,0.16 ± 0.00152 s⁻¹
c1ccc(C(NCc2cccnc2)(c2ccccc2)c2ccccc2)cc1,"Potassium voltage-gated channel subfamily KQT member 1, with KCNE1 (KCNQ1, Homo sapiens, UniProt P51787)",IKs activation,,"100 pM, with KCNE1",,G-V slope factor,28 ± 3 mV
COc1ccc(-c2cc(OCC(=O)N(C)Cc3cccnc3C)nc(-n3nc(C)cc3C)n2)cc1,"Endoplasmic reticulum aminopeptidase 1 (ERAP1, Homo sapiens, UniProt Q9NZ08)",,,added: Leu-AMC substrate,reference: IRAP over ERAP1,selectivity ratio,> 200 fold
CN1CCN(c2cc(-c3ccncc3)c(-c3ccc4ccccc4c3)nn2)CC1,"Somatostatin receptor type 2 (SSTR2, Homo sapiens, UniProt P30874)","agonist, FLIPR",,12.5 µM,,activation,-0.6%
CCOc1cc(-c2nncn2C)ccc1Nc1ncc2cc(C)nc(NCC(C)(C)C)c2n1,"Serine/threonine-protein kinase WNK2 (WNK2, Homo sapiens, UniProt Q9Y3S1)","binding, LanthaScreen binding",,1 µM,,displacement,23%
NCc1ccc(Br)cc1,"Amine oxidase [flavin-containing] A (Maoa, Rattus norvegicus, UniProt P21396)",substrate,,"pH 7.5, 25 °C",,kcat of deuterated substrate,0.0783 ± 0.00167 s⁻¹
Cc1cc(NCCc2ccccc2)nc(N=C(N)Nc2ccc(Cl)cc2)n1,GAP50,"binding, surface plasmon resonance",,1:1 binding model,,koff,0.0517 s⁻¹
CC(C)(C)CNc1cc(=O)[nH]c(=O)[nH]1,FFAR4,"antagonist, β-arrestin recruitment",CHO cells,10 µM,,inhibition,23 ± 6%
C[C@]12C[C@H](O)[C@H]3[C@@H](CCC4=CC(=O)CC[C@@]43C)[C@@H]1CC[C@@H]2C(=O)CO,"Mineralocorticoid receptor (NR3C2, Homo sapiens, UniProt P08235)","reporter gene, agonist",,,reference: baseline,maximal response,52 fold
CCNC(=O)/C=C/c1cccc(Br)c1,"Sodium-dependent neutral amino acid transporter B(0)AT1 (SLC6A19, Homo sapiens, UniProt Q695T7)","inhibitor, L-[14C]leucine uptake",CHO-BC cells,"0.01 µM, 6 min, unit not given, added: GPNA 3 mM, JPH203 3 µM",reference: uninhibited cells,remaining transport activity,0.905
Nc1nc2c(ncn2[C@@H]2O[C@H](COP(=O)(O)O)[C@@H](O)[C@H]2O)c(=O)[nH]1,"GUK1 (Homo sapiens, UniProt Q16774, S37P)","enzyme activity, NADH-coupled",,31.25 µM,,reaction rate,0.0225 s⁻¹ and 0.557 s⁻¹ and 1.69 s⁻¹
COc1cc2c(cc1O)[C@@H](Cc1ccc(O)cc1)[N+](C)(C)CC2,GAP50,differential scanning fluorimetry,,,,ΔTm,2 °C
NCCS(=O)(=O)O,"Sodium- and chloride-dependent taurine transporter (SLC6A6, Homo sapiens, UniProt P31641, S402A)","binding, microscale thermophoresis",,"7.81 µM, room temperature, added: 50 nM labelled protein",higher = more binding,normalised MST signal,0.0169
CCc1cc(NC(=O)COc2ccc(C(F)(F)F)cc2C(F)(F)F)n(CC(F)(F)F)n1,"Kir3.1/Kir3.2 (Homo sapiens, UniProt P48051+P48549)","thallium flux, activator",HEK293,,reference: standard compound,Emax,84%
Cc1nc(CSc2nc(SCc3ccc(C(C)C)cc3)nc(=O)[nH]2)cs1,"DNA topoisomerase 2-alpha (TOP2A, Homo sapiens, UniProt P11388)",decatenation,,"7.8 µM, replicate 2",,decatenated DNA,45.5%
O=C(COP(=O)(O)O)[C@@H](O)[C@H](O)[C@H](O)COP(=O)(O)O,"PGM1 (Homo sapiens, UniProt P36871)",,,"0.25 mM, unit not given",reference: activity at 0 mM set to 100,enzyme activity,102 and 100 and 98.6
Cc1ccc(S(=O)(=O)Nc2ccc(CN3CCN(C(=O)c4cccc(C#N)c4)CC3)cc2)cc1,GAP50,"binding, surface plasmon resonance",,1:1 binding model,,koff,1.76 s⁻¹
O=C(c1ccc(CNCCCN2CCN(c3ccc(F)cc3)CC2)cc1)c1ccc([N+](=O)[O-])cc1,"Sigma intracellular receptor 2 (TMEM97, Homo sapiens, UniProt Q5BJF2)",radioligand binding,RT-4 cell membranes,,reference: sigma1 Ki over sigma2 Ki,Ki ratio,70.9
CCCCCCNc1[nH]c(=O)[nH]c(=O)c1N=O,FFAR4,"antagonist, β-arrestin recruitment",CHO cells,"10 µM, added: 4 µM TUG-891",,inhibition,13 ± 3%
OC[C@H]1OC(O)[C@H](O)[C@@H](O)[C@@H]1O (stereo partly shown),"Hexokinase-3 (HK3, Homo sapiens, UniProt P52790)",isothermal titration calorimetry,,"concentration not given, 25 °C",,enthalpy change,-20.3 ± 0.3 kcal/mol
O=C(NCc1ccc(CNS(=O)(=O)c2ccccc2)cc1)c1ccccc1F,"C-X-C chemokine receptor type 4 (CXCR4, Homo sapiens, UniProt P61073)","binding, inhibitor, competitive binding",MDA-MB-231,added: biotinylated TN14003,,EC,1000 nM
Cc1ccc(CCNc2cc(=O)[nH]c(=O)[nH]2)cc1,FFAR4,"agonist, β-arrestin recruitment",CHO cells,10 µM,reference: 30 µM TUG-891,agonist effect,1 ± 1%
Nc1nc2cc(F)c(F)cc2[nH]1,"Voltage-gated hydrogen channel 1 (HVCN1, Homo sapiens, UniProt Q96D96, F150A)","proton current, inhibitor, inside-out patch clamp",,,,Hill coefficient,1.27 ± 0.1
NC(=O)NOCCCCCCCCCC[P+](c1ccccc1)(c1ccccc1)c1ccccc1.O=C([O-])C(F)(F)F,"NADH dehydrogenase [ubiquinone] iron-sulfur protein 7, mitochondrial/NADH dehydrogenase [ubiquinone] iron-sulfur protein 2, mitochondrial/MT-ND1","complex I-dependent respiration, Seahorse XF96",HCT-116,"40 µM, 24 h",reference: control,oxygen consumption rate,3.14 ± 3.67%
O=c1cc(NCCc2ccc(Br)cc2)[nH]c(=O)[nH]1,FFAR4,"agonist, β-arrestin recruitment",CHO cells,10 µM,,activation,0 ± 1%
Nc1ncnc2c1ncn2[C@@H]1O[C@H](COP(=O)(O)CP(=O)(O)OP(=O)(O)O)[C@@H](O)[C@H]1O,"P2X purinoceptor 1 (P2RX1, Homo sapiens, UniProt P51575)",saturation binding,HEK293,52 nM,,specific binding,7300 CCPM and 7510 CCPM and 2960 CCPM and 8550 CCPM and 5290 CCPM
CC(C)(C)CCNc1cc(=O)[nH]c(=O)[nH]1,FFAR4,"agonist, β-arrestin recruitment",CHO cells,10 µM,,activation,1%
Cn1sc(=O)n(Cc2ccccc2)c1=O,TRPM8,antagonist,HEK293,5 µM,reference: control,remaining activity,94.7 ± 6.31%

# Some of these lines once more:
Structure (SMILES),target,assay,system,conditions,how to read,quantity,result
CCCCCCNc1[nH]c(=O)[nH]c(=O)c1N=O,FFAR4,"antagonist, β-arrestin recruitment",CHO cells,"10 µM, added: 4 µM TUG-891",,inhibition,13 ± 3%
Cc1nc(CSc2nc(SCc3ccc(C(C)C)cc3)nc(=O)[nH]2)cs1,"DNA topoisomerase 2-alpha (TOP2A, Homo sapiens, UniProt P11388)",decatenation,,"7.8 µM, replicate 2",,decatenated DNA,45.5%
CN1CCN(c2cc(-c3ccncc3)c(-c3ccc4ccccc4c3)nn2)CC1,"Somatostatin receptor type 2 (SSTR2, Homo sapiens, UniProt P30874)","agonist, FLIPR",,12.5 µM,,activation,-0.6%
Nc1nc2c(ncn2[C@@H]2O[C@H](COP(=O)(O)O)[C@@H](O)[C@H]2O)c(=O)[nH]1,"GUK1 (Homo sapiens, UniProt Q16774, S37P)","enzyme activity, NADH-coupled",,31.25 µM,,reaction rate,0.0225 s⁻¹ and 0.557 s⁻¹ and 1.69 s⁻¹
